Published values of several laboratories.
± marks the error that the study gave.
UniProt Q9WUP0, sequence (whole entry, unmodified, looked up): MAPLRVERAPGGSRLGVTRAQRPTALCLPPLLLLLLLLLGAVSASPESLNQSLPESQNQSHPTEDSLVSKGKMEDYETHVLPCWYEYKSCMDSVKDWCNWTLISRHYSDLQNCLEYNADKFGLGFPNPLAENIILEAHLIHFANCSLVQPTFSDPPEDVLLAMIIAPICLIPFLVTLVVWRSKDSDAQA
UniProt O15552, sequence (whole entry, looked up): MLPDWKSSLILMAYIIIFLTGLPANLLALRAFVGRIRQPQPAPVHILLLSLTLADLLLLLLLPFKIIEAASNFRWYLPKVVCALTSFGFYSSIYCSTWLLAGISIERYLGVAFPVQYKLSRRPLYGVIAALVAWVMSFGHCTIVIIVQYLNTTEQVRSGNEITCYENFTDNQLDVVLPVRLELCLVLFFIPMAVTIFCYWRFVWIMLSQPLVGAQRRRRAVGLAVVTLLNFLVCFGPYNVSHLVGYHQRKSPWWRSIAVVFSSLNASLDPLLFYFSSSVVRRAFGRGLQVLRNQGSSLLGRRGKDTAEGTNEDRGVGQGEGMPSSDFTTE
UniProt P34972, sequence (whole entry, looked up): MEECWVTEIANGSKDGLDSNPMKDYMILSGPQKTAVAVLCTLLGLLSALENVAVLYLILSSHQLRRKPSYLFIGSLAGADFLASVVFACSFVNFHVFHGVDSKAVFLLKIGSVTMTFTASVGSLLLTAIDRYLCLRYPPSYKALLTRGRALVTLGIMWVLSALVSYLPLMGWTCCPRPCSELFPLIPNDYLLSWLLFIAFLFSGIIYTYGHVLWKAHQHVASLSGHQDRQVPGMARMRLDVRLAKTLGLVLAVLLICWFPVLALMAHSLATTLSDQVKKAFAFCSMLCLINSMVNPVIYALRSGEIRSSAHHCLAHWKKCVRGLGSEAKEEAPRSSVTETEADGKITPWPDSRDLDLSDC
UniProt P23811, sequence (whole entry, looked up): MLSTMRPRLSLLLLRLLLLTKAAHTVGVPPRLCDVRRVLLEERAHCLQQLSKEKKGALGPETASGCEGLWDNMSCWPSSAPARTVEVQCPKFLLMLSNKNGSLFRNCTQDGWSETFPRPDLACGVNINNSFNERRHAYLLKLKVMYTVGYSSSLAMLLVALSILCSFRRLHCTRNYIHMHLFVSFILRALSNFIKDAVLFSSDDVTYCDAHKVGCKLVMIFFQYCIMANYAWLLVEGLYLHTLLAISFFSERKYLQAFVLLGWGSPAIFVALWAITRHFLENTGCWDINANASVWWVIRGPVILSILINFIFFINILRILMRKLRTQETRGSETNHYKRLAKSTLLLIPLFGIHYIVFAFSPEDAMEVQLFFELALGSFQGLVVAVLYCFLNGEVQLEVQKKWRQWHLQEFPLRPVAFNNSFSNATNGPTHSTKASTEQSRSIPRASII
UniProt P30518, sequence (whole entry, looked up): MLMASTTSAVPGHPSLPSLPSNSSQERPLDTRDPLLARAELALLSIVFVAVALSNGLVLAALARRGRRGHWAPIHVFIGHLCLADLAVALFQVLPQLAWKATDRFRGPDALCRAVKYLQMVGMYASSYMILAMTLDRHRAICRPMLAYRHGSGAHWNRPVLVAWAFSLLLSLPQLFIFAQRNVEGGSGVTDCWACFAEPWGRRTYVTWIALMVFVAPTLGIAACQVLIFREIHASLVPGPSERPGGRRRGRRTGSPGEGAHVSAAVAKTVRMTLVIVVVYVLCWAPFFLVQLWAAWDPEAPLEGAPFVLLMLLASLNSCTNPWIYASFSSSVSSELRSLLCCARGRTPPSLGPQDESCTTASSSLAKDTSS
UniProt Q9UL62, sequence (whole entry, looked up): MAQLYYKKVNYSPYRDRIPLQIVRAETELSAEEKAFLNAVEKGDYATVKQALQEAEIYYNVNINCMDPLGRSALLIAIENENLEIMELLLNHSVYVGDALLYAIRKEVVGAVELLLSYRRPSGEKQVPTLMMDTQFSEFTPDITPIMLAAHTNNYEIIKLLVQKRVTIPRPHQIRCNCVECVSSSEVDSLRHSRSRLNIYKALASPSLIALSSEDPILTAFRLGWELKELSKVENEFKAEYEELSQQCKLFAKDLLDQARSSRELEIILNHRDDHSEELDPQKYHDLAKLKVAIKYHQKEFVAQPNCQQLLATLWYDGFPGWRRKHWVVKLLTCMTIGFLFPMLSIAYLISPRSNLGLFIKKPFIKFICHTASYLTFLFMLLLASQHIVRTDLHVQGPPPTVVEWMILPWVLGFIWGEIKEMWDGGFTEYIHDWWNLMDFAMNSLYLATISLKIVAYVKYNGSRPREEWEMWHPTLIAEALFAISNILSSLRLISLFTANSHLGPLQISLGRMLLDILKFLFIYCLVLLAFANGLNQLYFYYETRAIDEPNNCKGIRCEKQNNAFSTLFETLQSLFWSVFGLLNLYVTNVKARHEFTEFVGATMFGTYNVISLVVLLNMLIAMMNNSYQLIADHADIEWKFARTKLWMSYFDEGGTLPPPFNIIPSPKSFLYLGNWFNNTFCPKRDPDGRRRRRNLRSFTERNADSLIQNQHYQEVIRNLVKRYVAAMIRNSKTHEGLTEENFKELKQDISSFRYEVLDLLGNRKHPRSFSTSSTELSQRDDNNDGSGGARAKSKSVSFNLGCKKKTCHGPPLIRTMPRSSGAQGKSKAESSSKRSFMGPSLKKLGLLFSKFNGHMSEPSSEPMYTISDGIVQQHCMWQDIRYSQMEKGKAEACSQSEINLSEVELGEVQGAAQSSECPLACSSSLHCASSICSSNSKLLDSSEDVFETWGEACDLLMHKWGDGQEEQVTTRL
UniProt Q03111, sequence (whole entry, looked up): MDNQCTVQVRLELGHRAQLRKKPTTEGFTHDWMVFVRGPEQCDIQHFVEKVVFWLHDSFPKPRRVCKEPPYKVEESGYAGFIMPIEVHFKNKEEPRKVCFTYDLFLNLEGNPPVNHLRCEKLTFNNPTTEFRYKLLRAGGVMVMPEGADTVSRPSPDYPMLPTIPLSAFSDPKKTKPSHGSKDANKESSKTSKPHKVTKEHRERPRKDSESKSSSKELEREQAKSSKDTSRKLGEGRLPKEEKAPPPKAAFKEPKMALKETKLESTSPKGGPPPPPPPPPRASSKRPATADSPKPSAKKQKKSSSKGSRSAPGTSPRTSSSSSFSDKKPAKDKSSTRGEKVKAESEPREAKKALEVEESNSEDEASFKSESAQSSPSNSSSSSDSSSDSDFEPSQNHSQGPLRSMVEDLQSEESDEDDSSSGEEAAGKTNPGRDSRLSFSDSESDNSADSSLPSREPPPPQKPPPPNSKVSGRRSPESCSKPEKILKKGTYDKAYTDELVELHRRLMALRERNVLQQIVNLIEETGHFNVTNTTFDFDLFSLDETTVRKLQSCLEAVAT
UniProt P30550, sequence (whole entry, looked up): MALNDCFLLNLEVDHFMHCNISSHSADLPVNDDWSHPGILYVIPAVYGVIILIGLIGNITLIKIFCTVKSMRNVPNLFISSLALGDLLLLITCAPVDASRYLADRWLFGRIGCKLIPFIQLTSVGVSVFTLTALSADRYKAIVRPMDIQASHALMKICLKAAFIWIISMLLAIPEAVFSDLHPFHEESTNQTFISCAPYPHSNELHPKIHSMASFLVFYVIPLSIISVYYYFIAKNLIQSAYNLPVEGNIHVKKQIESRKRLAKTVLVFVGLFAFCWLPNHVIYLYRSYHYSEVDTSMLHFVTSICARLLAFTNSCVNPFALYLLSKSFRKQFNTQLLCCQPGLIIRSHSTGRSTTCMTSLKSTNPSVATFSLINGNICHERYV
UniProt Q8NER1, sequence (whole entry, looked up): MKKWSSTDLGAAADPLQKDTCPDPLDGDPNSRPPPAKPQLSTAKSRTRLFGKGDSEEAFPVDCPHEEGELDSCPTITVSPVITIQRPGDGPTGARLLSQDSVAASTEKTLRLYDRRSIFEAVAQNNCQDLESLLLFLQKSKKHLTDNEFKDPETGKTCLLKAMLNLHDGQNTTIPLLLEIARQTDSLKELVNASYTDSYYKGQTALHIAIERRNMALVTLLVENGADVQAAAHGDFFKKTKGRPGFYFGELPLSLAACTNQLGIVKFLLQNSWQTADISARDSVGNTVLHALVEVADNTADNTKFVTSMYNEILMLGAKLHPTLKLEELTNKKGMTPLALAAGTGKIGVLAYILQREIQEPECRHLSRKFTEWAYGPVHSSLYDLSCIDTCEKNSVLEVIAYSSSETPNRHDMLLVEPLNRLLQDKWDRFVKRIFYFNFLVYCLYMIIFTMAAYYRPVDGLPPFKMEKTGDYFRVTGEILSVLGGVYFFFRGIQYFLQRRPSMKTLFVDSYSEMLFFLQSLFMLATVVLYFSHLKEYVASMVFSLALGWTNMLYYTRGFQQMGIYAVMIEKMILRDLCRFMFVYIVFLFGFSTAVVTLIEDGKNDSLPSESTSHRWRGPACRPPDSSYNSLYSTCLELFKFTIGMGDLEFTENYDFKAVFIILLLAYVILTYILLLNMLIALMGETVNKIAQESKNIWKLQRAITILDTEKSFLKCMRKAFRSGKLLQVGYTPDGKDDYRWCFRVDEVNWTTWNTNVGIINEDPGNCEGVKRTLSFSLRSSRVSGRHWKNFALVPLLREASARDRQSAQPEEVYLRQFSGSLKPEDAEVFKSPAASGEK
UniProt Q60755, sequence (whole entry, unmodified, looked up): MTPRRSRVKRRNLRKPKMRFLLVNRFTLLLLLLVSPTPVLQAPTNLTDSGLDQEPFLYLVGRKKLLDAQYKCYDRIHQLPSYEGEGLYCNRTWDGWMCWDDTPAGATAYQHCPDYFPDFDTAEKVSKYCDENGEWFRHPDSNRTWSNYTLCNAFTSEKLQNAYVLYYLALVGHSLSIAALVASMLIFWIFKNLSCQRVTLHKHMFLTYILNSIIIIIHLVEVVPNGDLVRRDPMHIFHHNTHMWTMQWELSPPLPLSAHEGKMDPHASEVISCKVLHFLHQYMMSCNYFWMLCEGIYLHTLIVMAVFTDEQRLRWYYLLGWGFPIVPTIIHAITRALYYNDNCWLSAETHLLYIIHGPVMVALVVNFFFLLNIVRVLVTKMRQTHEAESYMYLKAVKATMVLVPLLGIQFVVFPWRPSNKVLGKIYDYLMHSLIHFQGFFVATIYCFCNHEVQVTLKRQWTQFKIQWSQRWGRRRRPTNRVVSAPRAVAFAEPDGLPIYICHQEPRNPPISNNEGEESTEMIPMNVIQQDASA

C#CCn1c(Oc2cccc(C3(C(F)(F)F)N=N3)c2)nc2c1c(=O)n(CCCO)c(=O)n2C has an EC50 of 19 nM (TRPC5 (Homo sapiens, UniProt Q9UL62); calcium signal, agonist, fluorescence).
For COc1cc(CNC(=O)C[C@H](C)CCC=C(C)C)ccc1OCc1cn(-c2ccc(F)cc2)nn1, the growth percent was 101% (SW-620; SRB; 10 µM, 48 h).
CC[C@H](C)[C@H](NC(=O)[C@@H]1CCCN1C(=O)CNC(=O)[C@H](Cc1ccccc1)NC(=O)[C@H](CC(N)=O)NC(=O)[C@H](CC(N)=O)NC(=O)[C@H](CO)NC(=O)[C@H](CO)NC(=O)[C@H](Cc1c[nH]cn1)NC(=O)[C@@H](NC(=O)[C@H](CC(C)C)NC(=O)[C@H](Cc1ccccc1)NC(=O)[C@H](CC(N)=O)NC(=O)[C@H](C)NC(=O)[C@H](CC(C)C)NC(=O)[C@H](CCCNC(=N)N)NC(=O)[C@H](CCC(N)=O)NC(=O)[C@@H](NC(=O)[C@H](C)NC(=O)[C@@H]1CSSC[C@H](NC(=O)[C@@H](N)CCCCN)C(=O)N[C@@H](CC(N)=O)C(=O)N[C@@H]([C@@H](C)O)C(=O)N[C@@H](C)C(=O)N[C@@H]([C@@H](C)O)C(=O)N1)[C@@H](C)O)C(C)C)C(=O)N[C@@H](CC(C)C)C(=O)N1CCC[C@H]1C(=O)N1CCC[C@H]1C(=O)N[C@H](C(=O)N[C@@H](CC(N)=O)C(=O)N[C@H](C(=O)NCC(=O)N[C@@H](CO)C(=O)N[C@@H](CC(N)=O)C(=O)N[C@H](C(=O)N[C@@H](Cc1ccc(O)cc1)C(N)=O)[C@@H](C)O)C(C)C)[C@@H](C)O gave an EC50 of 7.76 nM (Calcr/Ramp2 (Mus musculus, UniProt Q60755+Q9WUP0, P10T); cAMP production, agonist; COS-7, transfected; 15 min, 37 °C, with: IBMX 1 mM).
The EC50 of CCCC[C@H](NC(=O)[C@H](Cc1ccccc1)NC(=O)[C@H](Cc1c[nH]cn1)NC(=O)CCNC(=O)[C@@H](NC(=O)[C@H](C)NC(=O)[C@H](Cc1c[nH]c2ccccc12)NC(=O)[C@H](CC(N)=O)NC(=O)[C@@H](Cc1ccc(O)cc1)NC(=O)[C@@H](CO)NC(=O)[C@H](CO)NC(=O)[C@H](N)CO)C(C)C)C(N)=O is reported as 2.04 nM (GRPR (Homo sapiens, UniProt P30550); inositol phosphate, agonist).
NCCCC[C@H](NC(=O)[C@@H]1CCCN1C(=O)[C@@H]1CSSC[C@H](N)C(=O)N[C@@H](Cc2ccc(O)cc2)C(=O)N[C@@H](Cc2ccccc2)C(=O)N[C@@H](CCC(N)=O)C(=O)N[C@@H](CC(N)=O)C(=O)N1)C(=O)NCC(N)=O gave an EC50 of 0.01 nM (AVPR2 (Homo sapiens, UniProt P30518); calcium signal, agonist).
CC(C)C[C@H](NC(=O)CNC(=O)[C@H](CCC(N)=O)NC(=O)[C@H](CC(C)C)NC(=O)[C@H](CC(C)C)NC(=O)[C@H](CCCNC(=N)N)NC(=O)[C@H](CCC(N)=O)NC(=O)[C@H](CC(C)C)NC(=O)[C@H](CCCNC(=N)N)NC(=O)[C@H](C)NC(=O)[C@H](CO)NC(=O)[C@H](CC(=O)O)NC(=O)[C@H](CCC(N)=O)NC(=O)[C@H](CC(C)C)NC(=O)[C@H](CCCNC(=N)N)NC(=O)[C@H](CO)NC(=O)[C@H](CC(C)C)NC(=O)[C@H](CCC(=O)O)NC(=O)[C@H](CO)NC(=O)[C@@H](NC(=O)[C@H](Cc1ccccc1)NC(=O)[C@@H](NC(=O)[C@H](C)NC(=O)[C@H](CC(=O)O)NC(=O)[C@H](CO)NC(=O)[C@@H](N)Cc1c[nH]cn1)[C@@H](C)O)[C@@H](C)O)C(=O)N[C@H](C(N)=O)C(C)C gave an EC50 of 5.1 ± 0.8 nM (Sctr (Rattus norvegicus, UniProt P23811); cAMP production, agonist; CHO-SecR; 30 min, 37 °C, with: 1 mM IBMX).
The EC50 of Fc1ccc(CN2CCC[C@@H](c3nc(-c4ccc(F)c5cn[nH]c45)no3)C2)cn1 is reported as 96.1 nM (CNR2 (Homo sapiens, UniProt P34972); cAMP, agonist, luciferase).
The EC50 of O=C(O)C1=CCCC1 is reported as 251000 nM (FFAR2 (Homo sapiens, UniProt O15552); agonist).
For COc1cc(CNC(=O)C[C@H](C)CCC=C(C)C)ccc1OCc1cn(-c2ccc(Cl)c(Cl)c2)nn1, the growth percent was 91% (UACC-257 melanoma cells; SRB; 10 µM, 48 h).
With COc1cc(CNC(=O)CCCC/C=C/C(C)C)ccc1N(S(C)(=O)=O)S(C)(=O)=O the EC50 was > 10000 nM (TRPV1 (Homo sapiens, UniProt Q8NER1); calcium signal, agonist).
With O=C(NC1CCC1)c1ccc2nc(-c3cccc(NS(=O)(=O)NCCc4c[nH]cn4)c3)cn2c1 the EC50 was 425 nM (Protein ENL, YEATS domain (MLLT1, Homo sapiens, UniProt Q03111); cell-based).
